Results collected from several papers.
Protocols differ between the studies behind these lines. ± marks the error that the study gave.

`CC(C)(c1ccc(O)cc1)c1ccc(O)cc1` — result for “late apoptotic cells”: 13.6 ± 4.39% (HepG2 spheroids; annexin V-FITC/PI flow cytometry; 10 µM, 24 h).
`COC(=O)c1ccc(NC(=O)c2sc3nc(-c4ccccc4)cc(C(F)(F)F)c3c2N)cc1` gave a viability of 8 ± 1% (MDA-MB-231; MTT; 100 µM, 72 h).
`CN(C(=O)n1cnc(-c2ccc[n+]([O-])c2)c1)C1CCCCC1`: compound concentration “not detected” (COS cells expressing human FAAH; cell lysate; 100 nM, 3 h, quantification limit 5 nM).
`CC[C@@H]1NC(=O)[C@H]([C@@H](C)CC)NC(=O)[C@H](CC(C)C)NC(=O)[C@@H]2CCCN2C(=O)[C@@H](CC(C)C)NC(=O)[C@H]2CCCN2C(=O)[C@@H](Cc2ccc(O)cc2)NC(=O)CSC[C@@H](C(=O)O)NC(=O)[C@H]([C@@H](C)O)NC(=O)[C@H]([C@@H](C)CC)NC(=O)[C@H](C)NC1=O`: “Papp A to B” 2.61 ×10⁻⁶ cm/s (MDCK-MDR1; HBSS, 0.25% BSA; 2 h).
With `Cc1ccc(Nc2ccnc(N3CCC(C(=O)NCCCc4ccccc4)CC3)n2)cc1` the AC50 was 14.1 µM (Vero E6; cytotoxicity, CellTiter-Glo; retest 8-point, no virus).
The viability of `CCSc1nc2ccccc2n1Cc1nnc(-c2ccc(Cl)cc2)o1` is reported as 31.1 ± 5.2% (neutrophils; fresh heparinized human blood; 200 µg/mL, 30 min).
With `COc1cc(CNC(=O)c2sc3nc(C)cc(C(F)(F)F)c3c2N)cc(OC)c1OC` the viability was 25 ± 3% (MDA-MB-231; MTT; 100 µM, 72 h).
For `C=C[C@@](C)(/C=C/c1ccc(O)cc1)CCC=C(C)C`, the cytotoxicity was 0% (Vero E6; 100 µM).
With `Cc1cc(C)c(C#N)c(SCC(=O)Nc2ccon2)n1` the viability was 55 ± 7% (MDA-MB-231; MTT; 100 µM, 72 h).
Under “ATP level reduction”, `CN1CCN(c2ccc3nc(-c4c(N)c5c(F)cccc5[nH]c4=O)[nH]c3c2)CC1` is recorded as -5.14% (ARPE-19 HiBiT-fibulin-3 knock-in; cell viability, CellTiter-Glo; 1.66 µM, 48 h; reference: vehicle).
`CC(C)C[C@H]1C(=O)N[C@@H](C(C)C)C(=O)N[C@@H](Cc2ccccc2)C(=O)N[C@H](CC(=O)O)C(=O)N2CCC[C@@H]2C(=O)N[C@H](CCC(=O)O)C(=O)N[C@H](C(=O)O)CSSC[C@@H](N)C(=O)N[C@@H](CCC(=O)O)C(=O)N2CCC[C@H]2C(=O)N1C`: “Papp A to B” 0.07 ×10⁻⁶ cm/s (MDCK-MDR1; HBSS, 0.25% BSA; 2 h).
For `CCOC(=O)c1ccc(NC(=O)CSc2nc(-c3ccccc3)cc(C(F)(F)F)c2C#N)cc1`, the viability was 15 ± 3% (MDA-MB-231; MTT; 100 µM, 72 h).
`O=c1[nH]c2ccccc2s1` has an IC10 of 518 µM (HEK293H PPARγ-UAS-bla; cytotoxicity; 24 h, nominal concentration).
`O=S(=O)(c1ccc(O)cc1)c1ccc(O)cc1` — result for “late apoptotic cells”: 28.9 ± 11.1% (HepG2 spheroids, dissociated; annexin V-FITC/PI flow cytometry; 0.01 µM, 96 h).
`O=C(Nc1cccnn1)N1CCC(=Cc2cccc(Oc3ccc(C(F)(F)F)cn3)c2)CC1` has a supernatant concentration of 49.4 ± 2.9 nM (COS cells expressing human FAAH; 100 nM, 24 h).
With `Cc1cccc(NC(=O)CSc2nc(-c3ccccc3)cc(C)c2C#N)n1` the viability was 34 ± 3% (MDA-MB-231; MTT; 100 µM, 72 h).
The CC50 of `CC(=O)O[C@H]1C[C@H](O[C@H]2[C@@H](O)C[C@H](O[C@H]3[C@@H](O)C[C@H](O[C@H]4CC[C@@]5(C)[C@H](CC[C@@H]6[C@@H]5C[C@@H](O)[C@]5(C)[C@@H](C7=CC(=O)OC7)CC[C@]65O)C4)O[C@@H]3C)O[C@@H]2C)O[C@H](C)[C@H]1O[C@@H]1O[C@H](CO)[C@@H](O)[C@H](O)[C@H]1O` is reported as over 60 µM (primary human fibroblasts uninfected; live/dead staining; 48 h).
With `Cc1cc(-c2ccccc2)c(C#N)c(SCC(=O)Nc2nccs2)n1` the viability was 44 ± 5% (MDA-MB-231; MTT; 100 µM, 72 h).
For `O=NN1CC2CC(C1)c1cc3nccnc3cc12`, the relative survival was 84% (TK6 expressing CYP3A4; 50 µM, 4 h, without S9; reference: vehicle).
`C=CCNC1=C2C[C@@H](C)C[C@H](OC)[C@H](O)[C@@H](C)/C=C(\C)[C@H](OC(N)=O)[C@@H](OC)/C=C\C=C(/C)C(=O)NC(=CC1=O)C2=O`: “ATP level reduction” -9.89% (ARPE-19 HiBiT-fibulin-3 knock-in; cell viability, CellTiter-Glo; 1.66 µM, 48 h; reference: vehicle).
For `COc1ccc(C[C@@H]2c3cc(Oc4cc(C[C@@H]5c6cc(O)c(OC)cc6CCN5C)ccc4O)c(OC)cc3CCN2C)cc1`, the cytotoxicity was 0% (Vero E6; 50 µM).
`C[S+](C)[O-]` — result for “lowest significantly cytotoxic concentration”: at least 3% (Vero-B4; concentration not given, 4 days; reference: mock).
`O=C(Nc1cnccc1Cl)N1CCN(Cc2ccc3c(c2)OC(F)(F)O3)CC1` — result for compound concentration: “not detected” (COS cells expressing human FAAH; cell lysate; 100 nM, 1 h, quantification limit 5 nM).
`CC[C@H](C)CCCCC(=O)N[C@@H](CCN)C(=O)N[C@H](C(=O)N[C@@H](CCN)C(=O)N[C@H]1CCNC(=O)[C@H]([C@@H](C)O)NC(=O)[C@H](CCN)NC(=O)[C@H](CCN)NC(=O)[C@H](CC(C)C)NC(=O)[C@@H](CC(C)C)NC(=O)[C@H](CCN)NC1=O)[C@@H](C)O` — result for “drug remaining in donor”: over 90% (Calu-3 monolayer; LC-MS/MS; 500 µg/mL, 4 h).
`CC(C)[C@H]1C(=O)N[C@@H](CCCN=C(N)N)C(=O)NCC(=O)N[C@@H](CC(=O)O)C(=O)N[C@H](Cc2ccccc2)C(=O)N1C`: “Papp B to A” 0.0745 ×10⁻⁶ cm/s (Caco-2; 20 µM).
With `O=C(/C=C/c1ccc(O)c(O)c1/C=C/c1ccc(O)c(O)c1)O[C@H](Cc1ccc(O)c(O)c1)C(=O)O` the cytotoxicity was 0% (Vero E6; 100 µM).
The IC50 of `CC[C@H](C)[C@@H]([C@@H](CC(=O)N1CCC[C@H]1[C@H](OC)[C@@H](C)C(=O)N[C@H](C)[C@@H](O)c1ccccc1)OC)N(C)C(=O)[C@@H](NC(=O)[C@@H](NC)C(C)C)C(C)C` is reported as 0.0009 µM (SK-RC-52 (CAIX-expressing); cell proliferation, MTS; 72 h).
The induction Emax of `COc1ccc(C(C)(C)c2cnc(SCCOc3ccc(-n4ccnc4)cc3)n2-c2ccc(F)cc2)cc1OC` is reported as 7.69 fold (sandwich-cultured human hepatocytes; gene induction, inducer, refers to: CYP3A4 mRNA; 48 h; reference: vehicle).
Under “late apoptotic cells”, `CC(c1ccccc1)(c1ccc(O)cc1)c1ccc(O)cc1` is recorded as 8.74 ± 1.17% (HepG2 spheroids, dissociated; annexin V-FITC/PI flow cytometry; 0.1 µM, 24 h).
The viability of `N#Cc1c(C(F)(F)F)cc(-c2ccccc2)nc1SCC(=O)Nc1ccccc1` is reported as 52 ± 8% (MDA-MB-231; MTT; 100 µM, 72 h).
For `CC(C)C[C@H]1C(=O)N[C@@H](C)C(=O)N[C@@H](CO)C(=O)N[C@@H](C(C)C)C(=O)N(C)[C@@H](CC(C)C)C(=O)N[C@H](C)C(=O)N[C@H](C(C)C)C(=O)N2CCC[C@@H]2C(=O)N[C@H](Cc2ccc(O)cc2)C(=O)NCC(=O)N1C`, “Papp A to B” read 0.15 ×10⁻⁶ cm/s (MDCK-MDR1; HBSS, 0.25% BSA; 2 h).
`COc1ccc(CC(=O)Nc2nc3c(s2)CCc2ccccc2-3)cc1OC` has a CC50 of over 20 µM (human cells).
For `Oc1ccc(C2(c3ccc(O)cc3)c3ccccc3-c3ccccc32)cc1`, the necrotic cells was 4.02 ± 0.91% (HepG2 spheroids; annexin V-FITC/PI flow cytometry; 1 µM, 24 h).
`NC(=O)c1nc(F)c[nH]c1=O`: “unbound fraction in cells” 0.013 (Vero E6; concentration not given, 4 (unit not given), together with: verapamil).
`CC[C@H](C)[C@H]1C(=O)N2CCC[C@H]2C(=O)N[C@@H](CO)C(=O)N[C@H]([C@H](C)O)C(=O)N[C@H](Cc2ccc(O)cc2)C(=O)N[C@@H](CC(C)C)C(=O)NCC(=O)N[C@@H](C(C)C)C(=O)N[C@@H](C)C(=O)N[C@@H](Cc2ccccc2)C(=O)N2CCC[C@H]2C(=O)N1C`: “Papp A to B” 0.01 ×10⁻⁶ cm/s (MDCK-MDR1; HBSS, 0.25% BSA; 2 h).
With `CC(C)=CCc1c(O)ccc(C(=O)/C=C/c2ccc(O)cc2)c1O` the cytotoxicity was 0% (Vero E6; 100 µM).
`CC(C)CC(=O)OC[C@H]1O[C@@](C#N)(c2ccc3c(N)ncnn23)[C@H](O)[C@@H]1O` has a recovery of 99.5% (Caco-2; bidirectional permeability; 0.9 µM, 120 min; basolateral to apical).
`Oc1ccc(C(c2ccc(O)cc2)(C(F)(F)F)C(F)(F)F)cc1` gave a viable cells of 68.9 ± 9.47% (HepG2 spheroids, dissociated; annexin V-FITC/PI flow cytometry; 1 µM, 24 h).
`O=C(Nc1cnccc1Cl)N1CCN(Cc2ccc3c(c2)OC(F)(F)O3)CC1` gave a supernatant concentration of 93.5 ± 3.5 nM (COS cells expressing human FAAH; 100 nM, 24 h).
With `Nc1c(C(=O)Nc2ccon2)sc2nc(-c3ccccc3)cc(C(F)(F)F)c12` the viability was 15 ± 3% (MDA-MB-231; MTT; 100 µM, 72 h).
With `CC(C)C[C@@H](NC(=O)[C@H](C)NC(=O)CNC(=O)[C@@H](NC=O)C(C)C)C(=O)N[C@@H](C)C(=O)N[C@@H](C(=O)N[C@H](C(=O)N[C@@H](C(=O)N[C@@H](Cc1c[nH]c2ccccc12)C(=O)N[C@H](CC(C)C)C(=O)N[C@@H](Cc1cccc2[nH]ccc12)C(=O)N[C@H](CC(C)C)C(=O)N[C@@H](Cc1c[nH]c2ccccc12)C(=O)N[C@H](CC(C)C)C(=O)N[C@@H](Cc1c[nH]c2ccccc12)C(=O)NCCO)C(C)C)C(C)C)C(C)C` the IC50 was 0.00645 ± 0.00022 µM (P388 (mouse); cytotoxicity, WST-1; 92 h).
The chance response of `O=c1ccc2ccccc2o1` is reported as 0.01% (NHEK; cell count; concentration not given, 24 h, HIF1alpha, inflammation, pH panel).
Under “Papp A to B”, `CC(C)C[C@@H]1C(=O)N[C@@H](Cc2ccccc2)C(=O)N2CCC[C@H]2C(=O)N[C@@H]([C@@H](C)O)C(=O)N[C@@H](C(C)C)C(=O)N[C@H]([C@H](C)O)C(=O)N[C@@H](Cc2ccccc2)C(=O)N[C@@H](CCC(N)=O)C(=O)N[C@H](C(=O)O)CSSC[C@H](N)C(=O)N1C` is recorded as 0.16 ×10⁻⁶ cm/s (MDCK-MDR1; HBSS, 0.25% BSA; 2 h).
For `O=C(Nc1cccnn1)N1CCC(=Cc2cccc(Oc3ccc(C(F)(F)F)cn3)c2)CC1`, the intracellular concentration was 18.6 ± 0.6 nM (COS cells expressing human FAAH; cell lysate; 100 nM, 3 h).
Under “minimum cytotoxic concentration”, `Nc1nc(CC(O)c2ccccc2C(F)(F)F)c(Br)c(=O)[nH]1` (centres unmarked) is recorded as over 100 µM (MDCK; cell morphology alteration).
With `O=c1cc(-c2ccc(O)cc2)oc2c([C@@H]3O[C@H](CO)[C@@H](O)[C@H](O)[C@H]3O)c(O)cc(O)c12` the viability was 125% (Caco-2; CCK-8; 0.625 µM, 24 h).
The CC50 of `Cc1cc(C)nc(NC(=S)N2CCN(Cc3ccc(C(F)(F)F)cc3)CC2)c1` is reported as over 20 µM (human cells).

A few entries again:
For `CCOC(=O)c1ccc(NC(=O)CSc2nc(-c3ccccc3)cc(C(F)(F)F)c2C#N)cc1`, the viability was 15 ± 3% (MDA-MB-231; MTT; 100 µM, 72 h).
`COc1ccc(CC(=O)Nc2nc3c(s2)CCc2ccccc2-3)cc1OC` has a CC50 of over 20 µM (human cells).
For `C=C[C@@](C)(/C=C/c1ccc(O)cc1)CCC=C(C)C`, the cytotoxicity was 0% (Vero E6; 100 µM).
With `Cc1cc(-c2ccccc2)c(C#N)c(SCC(=O)Nc2nccs2)n1` the viability was 44 ± 5% (MDA-MB-231; MTT; 100 µM, 72 h).
